Results collected from several papers.
Every numbered part comes from another study and shows a few of its results, in no order.

Study 1 — technique: protein-binding microarray; molecule type: double-stranded DNA, one strand shown; sample: in vitro; concentration: 2540 nM top; setting: 60-bp whole probe; together with: salmon DNA 0.4 mg/ml; reference: random background probes; direction: higher = stronger binding; all sequences stand within: GCCTAGCAC … GTCTTGATTCGCTTGACGCTGCTG
Target: Interferon regulatory factor 3, full length, phosphomimetic (IRF3, Homo sapiens, UniProt Q14653, residues 1-427, S386D/S396D/S398D/S402D/T404D/S405D)
Target sequence (chain): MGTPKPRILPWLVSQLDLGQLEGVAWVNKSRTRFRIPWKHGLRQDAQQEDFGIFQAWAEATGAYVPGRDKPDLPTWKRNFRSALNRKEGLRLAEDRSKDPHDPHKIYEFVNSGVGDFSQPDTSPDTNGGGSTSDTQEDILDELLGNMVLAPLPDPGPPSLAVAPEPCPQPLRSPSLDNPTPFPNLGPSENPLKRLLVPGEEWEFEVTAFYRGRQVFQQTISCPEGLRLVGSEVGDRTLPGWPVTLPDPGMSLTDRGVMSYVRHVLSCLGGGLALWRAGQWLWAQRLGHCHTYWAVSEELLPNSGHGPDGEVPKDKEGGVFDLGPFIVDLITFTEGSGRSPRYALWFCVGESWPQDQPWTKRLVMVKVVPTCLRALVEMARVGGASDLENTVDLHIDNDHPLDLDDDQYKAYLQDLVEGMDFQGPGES
Sequence	fitted relative affinity
GACGATTCCAGTTCCGAGACGTGCTAG	1.77 z-score
TTTGGACACAGACACAGGCCGTGCTAG	-0.223 z-score
GACGGACTGCTTCTCCTCACGTGCTAG	-0.434 z-score
TCACATTTATTTACTCTCACTGTGCTA	0.969 z-score
TTAAGTCTCGGACTGGGTTAGTGCTAG	-0.168 z-score
TCAGTTCTTATCCTTCCCACTGTGCTA	1.51 z-score
TTAGATATCAGTATGGATTAGTGCTAG	0.313 z-score
TCAGATATCTTTTTCCTACTGTGCTAG	1.79 z-score
TTAGGTATTGGGTATCGGTTAGTGCTA	0.606 z-score
TCATTCATGAAGTTTTAAACTGTGCTA	0.379 z-score
TCACTTTTTGCTTTCTTACTGTGCTAG	1.98 z-score
GACGATTTCGGGTATCGCGACGTGCTA	1.57 z-score
CACCGTCTTATTAAAAAACAGTGCTAG	0.768 z-score
GTGTTTTCACTTTTCCTACAGTGCTAG	4.37 z-score
TTAGATCTCCTTATCCTTTAGTGCTAG	2.02 z-score
CCCTAGGGGCTCTCAGAGATGTGCTAG	-0.736 z-score
GACGAACTGGGGACTGGAGTCGTGCTA	-0.434 z-score
TCAATTATCCTTGTCCCACTGTGCTAG	1.74 z-score
TCTGTTTTTGCTTTCCTTTAGTGCTAG	3.83 z-score
TTAGGTATCCTTCCCCTTTAGTGCTAG	3.21 z-score
TTAGGACTGGAACTGGGTTAGTGCTAG	-0.598 z-score
TAAGGACTGGGGACTGGGTTAGTGCTA	-1.34 z-score
TTAGGTTTCGGGACTAGGTTAGTGCTA	4.19 z-score
GACGAACTGAGATTCGAGACGTGCTAG	-0.164 z-score
GACGATATAAGTTTCGAGACGTGCTAG	2.01 z-score

Study 2 — technique: protein binding microarray; molecule type: double-stranded DNA, one strand shown; sample: in vitro; concentration: not given; reference: not given; direction: higher = stronger binding
Target: Histone acetyltransferase KAT6A, winged helix 2, GST fusion (KAT6A, Homo sapiens, UniProt Q92794, residues 85-181)
Setting: 8-mer, flanks averaged, mean of 2 arrays, mostly near background
Residues (chain): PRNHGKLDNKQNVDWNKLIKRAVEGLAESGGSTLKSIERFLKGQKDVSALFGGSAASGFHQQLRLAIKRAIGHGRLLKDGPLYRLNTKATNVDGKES
Sequence	E-score
GCGTTGCA	0.106
AGTACAAA	-0.152
TCCCCAGA	0.00872
ACAGTCCA	-0.151
GCCTCAAC	0.207
TCTCCCCA	0.0314
ACCCATTA	-0.164
CCTCCGCA	-0.0438
GATAATCA	0.0641
TCTGAACA	-0.0753
CGAAGAAA	0.137
ATTAAATA	0.12
ACTAGGTG	-0.0919
ATGCAGAC	0.0984
CCCCGAGA	-0.0363
ATTTGTCG	0.0845
ACTTCTCG	-0.0419
AAAAGGCT	-0.108
AGTCCCCA	-0.13
CCAGGTCG	-0.07
AGGACACG	-0.207
GACTACGA	-0.105
AACGTGAC	-0.233
CCCCATAG	-0.0612
AAGCGTTA	-0.138

Study 3 — technique: RNA Bind-n-Seq; molecule type: RNA; sample: in vitro; concentration: not given; reference: input RNA pool; direction: higher = stronger binding
Target: RING finger protein unkempt homolog, zinc fingers 1-6, GST-SBP tag (UNK, Homo sapiens, UniProt Q9C0B0, residues 30-357)
Chain of UniProt Q9C0B0 (30-357, looked up): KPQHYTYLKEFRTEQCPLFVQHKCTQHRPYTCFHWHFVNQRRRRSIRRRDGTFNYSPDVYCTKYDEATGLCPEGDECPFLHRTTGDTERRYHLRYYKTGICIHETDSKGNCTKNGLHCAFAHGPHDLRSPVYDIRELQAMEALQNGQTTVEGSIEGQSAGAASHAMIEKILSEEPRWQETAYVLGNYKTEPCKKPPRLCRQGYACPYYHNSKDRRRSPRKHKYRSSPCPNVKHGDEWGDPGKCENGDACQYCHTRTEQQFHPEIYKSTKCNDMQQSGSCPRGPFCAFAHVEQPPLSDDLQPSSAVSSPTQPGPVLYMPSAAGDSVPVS
Setting: RNA with constant flanks, human and mouse sites, ends assumed
All sequences stand within: GGGAGUUCUACAGUCCGACGAUC … CAACAGAGGAUUGAGCAUCA
Sequence	bound/input enrichment [ratio]
ACUAUAUGAGUAUGUGUACUGCAUGUUUACAUAAAACAGUUUAAUUUUGAAGGAUUAUUUUAAAAACUAUGUUUAUAUAUAAUACCUAACAAGCUGUAAAUAUUGUAUAUUAUUGAUUUU	0.485
GUUUUGGUGACUGUCAAAAGGAACUUUGACAAAUGCAUUAGUAACCAAAUAAGGCAAAUGGAAGAAGUAAAGAUCUCAAAAAAGAGUAAAGUUGGAAUUCUUCCAUUUGUUGCUGAAUUU	1.03
UCCCUGUGCUUACUAAAUGAUUUGUGAAGAACUGUCCCCAAGUUGUAACCCAUGUACUCCCUUAGAGUUGCUGCAAAAUGUCUCUUAUAUUGAUGUUGUUUGUUUACCUGACUCUCCAUA	1.62
CUGAAAUCUUUGGAGACUAUGCCUCCAGAGACGUCAAAGACCACGCUGGUAGAGCUUCCCAUAGCAAAAGUGGUUGAGCCAUCAGAAACCCUCACGAUAGUGUCAGAGACACCUACUGAG	0.211
GGAAAUCGGGCUGAAGCGACUGAGUCCGCGAUGGAGAGAGAAAAGGAACAGUUCCGAAAGCUCUUUAUUGGUGGCUUAAGCUUUGAAACCACAGAAGAAAGUUUGAGAAACUACUAUGAG	0.221
AGCGGUGGGAACCACAUUGGCGGGUCUGGGUUGGGGUUAAAGGGAGAUUGGAGAUUUGAUUUAGGACCACAAAAAGGCUUUGUGGCUAACAUGGCGUGGCCGUGCAUCACAAGGGCCUGC	0.604
UAUCAUCCUGAUAAGAAUCCAAAUGCAGGAGACAAAAAUUAAAUGGAUUCUGGAUUCCUGUAGCUUCUCCCCACUCUUCUACUUGAAAAUGCAAUUAUUUUUAUUUUUACCUUUUCUUUA	0.696
CAGUACUAUGAUUUGCUCCGUCUGUUUGAAUACGGUGGCUUUCCUCCAGAGAGCAACUAUUUGUUUCUCGGGGACUAUGUGGACAGGGGCAAGCAGUCCCUGGAGACAAUCUGCCUCUUG	0.208
CAGUGGGUGCUGUGCCUUGGCGACCCCCGCAGAGCGCGCUGCCGCCUUUCUCUGGCAGUACCACCUUCUCCACAACCCCCUCUCUGCCCAGUACAACCCUGGCGUCCUCCACCCUAGACA	0.598
AUUGAAAUAUUCACUGACCUCAGCAGCCGAUUCAGCAAAAGUCAGCUGGAUAUUAUAAUUCAUAGCUUGAAGAAAUGUGACAUCUCCCUGCAAUUCUUCUUGCCUUUCUCACUUGGCAAG	0.229
CAUGAGGAAAGAACAAUUCUCCCUAUGUCGAGAGCAUUCCGCGGUAAACACCUCUCUUUUGUAGUUCGAUUUCCAAACCAGGGCAGACAGGUUGAUGACUUGGAGGUAUGGUCUCAUACA	0.149

Study 4 — technique: competition protein-binding microarray; molecule type: double-stranded DNA, one strand shown; sample: in vitro; concentration: 2 µM; together with: Pho4 competitor, 0.05 µM; direction: higher = stronger binding; all sequences stand within: … GTCTTGATTCGCTTGACGCTGCTG
Target: Centromere-binding protein 1, full length, His-tagged (CBF1, Saccharomyces cerevisiae, UniProt P17106, residues 1-351)
Chain of UniProt P17106 (whole entry, looked up): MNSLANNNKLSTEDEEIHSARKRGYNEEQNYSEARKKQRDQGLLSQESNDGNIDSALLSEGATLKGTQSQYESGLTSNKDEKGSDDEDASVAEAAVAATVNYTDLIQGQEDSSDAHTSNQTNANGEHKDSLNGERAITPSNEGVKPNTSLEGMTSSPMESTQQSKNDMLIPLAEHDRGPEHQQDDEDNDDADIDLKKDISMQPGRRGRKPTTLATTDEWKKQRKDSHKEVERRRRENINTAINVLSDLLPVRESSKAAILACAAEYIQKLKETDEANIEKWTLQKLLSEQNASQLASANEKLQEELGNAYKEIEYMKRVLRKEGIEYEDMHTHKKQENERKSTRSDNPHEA
Setting: whole 60-bp probe, lowest competitor level
Sequence	fluorescence intensity
CCTTGTCAGAGTCCGCACGGCCTTTTACTCTGGTGC	64.3 a.u.
ATTGGGCGGCTAATCGGCGTGCTGTATAAATCGAGT	102 a.u.
TAACATGCAGTATCGCACGGCGGGCCGAAAGTCGGA	56.2 a.u.
GGCTATTGAATCTCCAACGTGACGGTCGGTGAGAAT	206 a.u.
TGTAGTGGCAGTTTGCACGGGGTTTCCTGTGCCTTA	162 a.u.
ATATAAATGGAAAAGCTGCATAACCACTTTAACTAA	89.7 a.u.
GCAGTGCATAAGAGTGACCTGCGGCCAAGAACCCTA	55.6 a.u.
CGGGGTTAAGTTTGTCACAAGACTTGCTTGCAGCAG	107 a.u.
CGGGGTTAAGTTTTTCACGTGCCCTGCTTGCAGCAG	1130 a.u.
GATCCAGATTTCGACCACGTGCTAATTATGCGTTTG	4200 a.u.
GCCAGTAATTTACTACACGTGTATATATCAGAAAAA	1550 a.u.
TGCAGTTCTTCAGCAAACGTGATGGGCAAAACAACG	373 a.u.
CTAACGAAGGTTTGTCGAGTGGGTGACAAGCCAAGT	76.9 a.u.
CCGCGCAAAGCAGGCACCGTGCCGATATCTTTCTTT	61 a.u.
CGTCCTAGTGATTGTCACCGCACTTCCATGAGGAAG	75.2 a.u.
CGGGGTTAAGTTTGCCGGGTGGGTGGCTTGCAGCAG	62.6 a.u.
CCCAAACTCCCTTTACACATGCTGCTCCATCGCGGG	78.7 a.u.
GCTGCCAAGAAAAAGCACGTGTAACAATGGAATGAT	1970 a.u.
CTTCTGTAAATTTGTCACGTAACTTGACGCGCCCCG	156 a.u.
CTAACGAAGGTTTGTCAGGTGGGTGACAAGCCAAGT	137 a.u.
GCTCATCCTTCTGTTCATGCGTGAAGGCTGAATTAT	90.6 a.u.

A few entries again (study 4):
Sequence	fluorescence intensity
GCCAGTAATTTACTACACGTGTATATATCAGAAAAA	1550 a.u.
TGCAGTTCTTCAGCAAACGTGATGGGCAAAACAACG	373 a.u.
CTAACGAAGGTTTGTCGAGTGGGTGACAAGCCAAGT	76.9 a.u.
CCGCGCAAAGCAGGCACCGTGCCGATATCTTTCTTT	61 a.u.
CGTCCTAGTGATTGTCACCGCACTTCCATGAGGAAG	75.2 a.u.
CGGGGTTAAGTTTGCCGGGTGGGTGGCTTGCAGCAG	62.6 a.u.
CCCAAACTCCCTTTACACATGCTGCTCCATCGCGGG	78.7 a.u.
